Literature values that unrelated publications cite.
Chain of UniProt Q15418 (whole entry, looked up): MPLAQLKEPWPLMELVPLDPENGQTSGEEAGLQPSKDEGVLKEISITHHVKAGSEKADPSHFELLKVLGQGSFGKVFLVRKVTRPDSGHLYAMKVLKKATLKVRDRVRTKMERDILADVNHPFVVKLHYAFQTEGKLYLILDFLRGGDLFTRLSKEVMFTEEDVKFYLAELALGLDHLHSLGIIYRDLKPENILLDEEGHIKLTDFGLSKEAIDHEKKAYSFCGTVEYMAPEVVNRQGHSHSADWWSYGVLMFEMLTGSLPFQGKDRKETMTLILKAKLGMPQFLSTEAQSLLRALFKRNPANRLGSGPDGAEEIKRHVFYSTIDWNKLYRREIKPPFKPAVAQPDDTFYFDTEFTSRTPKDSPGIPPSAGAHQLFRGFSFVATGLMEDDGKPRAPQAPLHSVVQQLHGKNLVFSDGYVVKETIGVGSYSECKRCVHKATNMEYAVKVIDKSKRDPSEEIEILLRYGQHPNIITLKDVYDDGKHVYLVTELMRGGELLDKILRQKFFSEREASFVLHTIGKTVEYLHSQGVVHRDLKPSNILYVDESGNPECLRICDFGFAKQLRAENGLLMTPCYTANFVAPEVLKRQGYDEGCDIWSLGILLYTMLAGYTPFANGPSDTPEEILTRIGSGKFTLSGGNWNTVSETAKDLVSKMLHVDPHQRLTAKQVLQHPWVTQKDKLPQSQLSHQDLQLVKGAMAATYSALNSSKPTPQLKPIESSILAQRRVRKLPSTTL

| SMILES | target or system | assay | system | setting | scale | measurement | result |
| --- | --- | --- | --- | --- | --- | --- | --- |
| Cc1cccc(Nc2ccccc2C(=O)O)c1C |  |  |  |  |  | logP | 5.03 |
| CS(=O)(=O)c1ccc([C@@H](O)[C@@H](CO)NC(=O)C(Cl)Cl)cc1 |  |  |  |  |  | logP | -0.19 |
| O=c1c(-c2ccc(O)cc2)coc2cc(O)cc(O)c12 |  |  |  |  |  | logP | 2.84 |
| C#C[C@]1(O)CC[C@H]2[C@@H]3CCc4cc(O)ccc4[C@H]3CC[C@@]21C |  |  |  |  |  | logP | 3.81 |
| CC(=O)O[C@@H]1CC[C@@]2(C)[C@@H](CC[C@]3(C)[C@@H]2C(=O)C=C2[C@@H]4[C@@H](C)[C@H](C)CC[C@]4(C)CC[C@]23C)[C@@]1(C)C(=O)O |  |  |  | concentration not given |  | logP | 3.3 |
| C[C@@H](c1ncncc1F)[C@](O)(Cn1cncn1)c1ccc(F)cc1F |  |  | octanol/water |  |  | logP | 1.66 |
| O=c1c(O[C@@H]2O[C@H](CO)[C@H](O)[C@H](O)[C@H]2O)c(-c2ccc(O)c(O)c2)oc2cc(O)cc(O)c12 |  |  |  |  |  | logP | 0.4 |
| CC(C)n1nccc1-c1ncccc1COc1cccc(O)c1C=O |  |  | octanol/water |  |  | logP | 2.78 |
| C=CC(=O)N1C[C@H](Nc2ncnc3[nH]ccc23)CC[C@@H]1C |  |  |  |  |  | logP | 1.55 |
| CCCCC(CC)COC(=O)c1ccc(O)cc1 (stereo not shown) |  | octanol-water |  |  |  | logP | 4.93 |
| O=C(O)c1ccccc1O |  |  |  |  |  | logP | 2.12 |
| COc1cc(C(=O)NS(=O)(=O)c2ccccc2C)ccc1Cc1cn(C)c2ccc(NC(=O)OC3CCCC3)cc12 |  |  |  |  |  | logP | 5.5 |
| CC(C)(C)OC(=O)c1ccc(O)cc1 |  | octanol-water |  |  |  | logP | 3.12 |
| C[C@]1(c2nc3c(C(N)=O)cccc3[nH]2)CCCN1 |  |  |  |  |  | logP | 0.18 |
| Nc1cc(C(F)(F)F)c(-c2nc(N3CCOCC3)nc(N3CCOCC3)n2)cn1 | Ribosomal protein S6 kinase alpha-1, C-terminal kinase domain (RPS6KA1, Homo sapiens, UniProt Q15418) | enzyme activity |  | 10 µM | reference: untreated | remaining activity | 86% |
| CC(C)C[C@H](NC(=O)[C@H](CCc1ccccc1)NC(=O)CN1CCOCC1)C(=O)N[C@@H](Cc1ccccc1)C(=O)N[C@@H](CC(C)C)C(=O)[C@@]1(C)CO1 |  |  |  |  |  | logP | 4.13 |
| O=c1oc2cc(O)ccc2c2oc3cc(O)ccc3c12 |  |  |  |  |  | logP | 2.43 |
| O=S(=O)(O)c1cc(N=C=S)ccc1C=Cc1ccc(N=C=S)cc1S(=O)(=O)O |  |  |  |  |  | logP | 4.5 |
| CC(=O)Nc1ccc(O)cc1 |  |  | octanol/water |  |  | logP | 0.31 |
| c1ccc2[nH]c(-c3cscn3)nc2c1 |  |  |  |  |  | logP | 2.34 |
| CC[C@H]1OC(=O)[C@H](C)[C@@H](O[C@H]2C[C@@](C)(OC)[C@@H](O)[C@H](C)O2)[C@H](C)[C@@H](O[C@@H]2O[C@H](C)C[C@H](N(C)C)[C@H]2O)[C@](C)(OC)C[C@@H](C)C(=O)[C@H](C)[C@@H](O)[C@]1(C)O |  |  |  | Simcyp library default value |  | logP | 1.7 |
| CCCCCOC(=O)c1ccc(O)cc1 |  | octanol-water |  |  |  | logP | 3.72 |
| O=C(CCCCCCC(=O)Nc1ccccc1)NO |  |  |  |  |  | logP | 1.04 |
| O=c1[nH]c(=O)n([C@H]2C[C@H](O)[C@@H](CO)O2)cc1CCCC[18F] |  |  | 1-octanol/0.1 M NaH2PO4 | pH 7.47 |  | logP | -0.24 |
| O=C(O)c1ccc(O)cc1 |  | octanol-water |  |  |  | logP | 1.58 |

Some of these lines once more:
| SMILES | target or system | assay | system | setting | scale | measurement | result |
| --- | --- | --- | --- | --- | --- | --- | --- |
| C[C@@H](c1ncncc1F)[C@](O)(Cn1cncn1)c1ccc(F)cc1F |  |  | octanol/water |  |  | logP | 1.66 |
| O=C(O)c1ccc(O)cc1 |  | octanol-water |  |  |  | logP | 1.58 |
